Published values of several laboratories.
Compare with care: the assays were run in different laboratories. “And” joins repeats or separate records; there may be more than shown.
JAK2: Tyrosine-protein kinase JAK2 (JAK2, Homo sapiens, UniProt O60674)

SMILES | target | read-out | mode | method | tested at | added | inhibition
C[C@H]1CN(C(=O)c2cn(-c3ccnc(N)n3)c3cc(C#CC4(O)CCCCC4)ccc23)CCN1 | JAK2 | enzyme activity | inhibitor | FRET | 1 µM |  | 3%
Cc1cnc2nc1Nc1cccc(c1)COC/C=C/COCc1cc(ccc1OCCN1CCOCC1)N2 | JAK2 |  | inhibitor | Z'-LYTE kinase | 62.5 nM |  | 99.5% and 98.1% and 98.8%
CN1CCN(Cc2ccc(-c3ccc(CO[C@H]4CCC[C@@H]4NC(=O)c4cc(-c5cnn(C)c5)cnc4N)cc3)cc2)CC1 | JAK2 | enzyme activity | inhibitor |  | 0.1 µM |  | -7%
Cc1cnc2nc1Nc1cc(F)cc(c1)COC/C=C/COCc1cc(ccc1OCCN1CCCC1)N2 | JAK2 |  | inhibitor | Z'-LYTE kinase | 37.04 nM |  | 78.5% and 76.1% and 81.8%
C=CC(=O)Nc1cccc(-c2cnc3[nH]cc(C(=O)NC(C)(C)C)c3n2)c1 | JAK2 | kinase activity |  |  | 0.1 µM |  | 93%
COc1ccc(C(=O)/C=C/c2ccccc2-c2c[nH]c3ccc(C#N)cc23)c(O)c1 | JAK2 | enzyme activity | inhibitor |  | 20 µM |  | -7%
C=CC(=O)N1Cc2nc(-c3cc(-c4cc(Cl)cnc4Cl)c(F)cc3F)n(-c3ccncn3)c2C1 | JAK2 | cell-free assay | inhibitor |  | 1 µM |  | 3.5%
O=C(Nc1ccc(Oc2ncnc3[nH]cc(-c4ccccc4)c23)c(F)c1)c1c2n(n(-c3cc(F)ccc3F)c1=O)CCCC2 | JAK2 | enzyme activity | inhibitor |  | 0.5 µM |  | 13%
Cc1cnc2nc1Nc1cccc(c1)COCCCCOCc1cc(ccc1OCCN1CCCC1)N2 | JAK2 |  | inhibitor | Z'-LYTE kinase | 3333.33 nM |  | 93.3% and 91.6% and 92%
CCn1cc(C(=O)O)c(=O)c2c(N)c(F)c(NC3CCCCC3)cc21 | Tyrosine-protein kinase JAK2, JH1-JH2 domains (JAK2, Homo sapiens, UniProt O60674) | kinase activity |  |  | 0.1 µM | ATP at Km | 6.3%
NC(=O)[C@@H](O)C[C@H]1CCc2sc3ncnc(O[C@H]4CC[C@H](N5CCOCC5)CC4)c3c21 | JAK2 | enzyme activity | inhibitor |  | 10 µM |  | 1%
Cc1cccc(O[C@H]2CCC[C@@H](C(C)CNCc3ccncc3)C2)c1 (relative stereo) | JAK2 | kinase activity |  | kinome panel screening | 10 µM |  | -11%

A few entries again:
SMILES | target | read-out | mode | method | tested at | added | inhibition
Cc1cnc2nc1Nc1cccc(c1)COCCCCOCc1cc(ccc1OCCN1CCCC1)N2 | JAK2 |  | inhibitor | Z'-LYTE kinase | 3333.33 nM |  | 93.3% and 91.6% and 92%
